# Assay results of several laboratories.
# Each numbered part is a random draw from the data of one study; scales do not carry over between parts.

# Series 1
# Target: Hepatocyte nuclear factor 3-alpha (Foxa1, Mus musculus, UniProt P35582, residues 1-468, full length assumed)
# UniProt P35582, sequence (whole entry, looked up): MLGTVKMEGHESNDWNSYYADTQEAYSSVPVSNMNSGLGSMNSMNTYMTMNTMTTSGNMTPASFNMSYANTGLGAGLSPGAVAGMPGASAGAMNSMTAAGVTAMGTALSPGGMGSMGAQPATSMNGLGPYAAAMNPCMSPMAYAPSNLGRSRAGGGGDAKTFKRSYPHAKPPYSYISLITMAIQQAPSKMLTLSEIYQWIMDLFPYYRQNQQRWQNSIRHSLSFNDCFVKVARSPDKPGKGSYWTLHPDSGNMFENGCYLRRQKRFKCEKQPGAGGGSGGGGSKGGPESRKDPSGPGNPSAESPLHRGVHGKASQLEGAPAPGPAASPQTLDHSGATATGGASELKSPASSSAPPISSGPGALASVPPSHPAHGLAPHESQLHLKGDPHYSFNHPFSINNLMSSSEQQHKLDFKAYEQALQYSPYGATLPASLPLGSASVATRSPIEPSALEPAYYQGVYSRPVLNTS
# Technique: EMSA with sequencing
# Form: double-stranded DNA, one strand shown
# Matrix: in vitro
# Concentration: 10 and 20 nM
# Setting: whole designed probe, mean of two concentrations, ends assumed
# Reference: negative control set to 0
# Reading: higher = stronger binding
# Constant ends, left off below: GTGAGCGGTGCCCATTGATGGGGAAC … TTTCACTGGGATCGTGGGGAC
Oligonucleotide,normalised bound fraction [ratio]
ACACTTCTTCCATTTCCTCAACTCCTAAACATTCATTTATTCATTCTTCATCACACAAAAATCTGAATCTGGCTTCTGCCCCCTACCCTCCTAAATTACTTTCTCAAATAGTATACATTTAGTCATTAAACAAACATACATACATGCATATTTTCAAGATTATCAAGCAATTCCTGTTTCAACTTTTCTTAAA,0.432
TATATATATATATACTGCCTCAATGTTTTTTAACATGAAATTATTTAGATTATCTAAGACAAGCTGGCTAGGAGTTGTTTTGATTAGAATCAAAGTAATCTTAAAACATATTGGCTCAAATTGCTTAGTGGGCGCAATTAAATTTATGATGTATATAACACCATCAGCTTATTTTGAAAGTAAAGTTCTCACT,0.0371
GAACATGCCCCACAGATCATCTGAGCAGCTGCTGGCACTAACCCCATCCATCCGGGGCAACAGGCTCCACAGGCCCCGGGGAGAGGCTGAGCTGTTTACTTTTGGTTTCTCAATAACTCCTGTTTCCGAGGGCTCTCTGCCAAAGGGAGAGAGAGGGAAGTGGCATCCCATGGCCCTGTCCAAGGACAGCCCA,0.29
GTACAAAATTGCACTCATTGCTCTCTTGCAGATGGCTTATTCTGGATCTCAGATAAAACTTATAAAGAAAACAAGTAGTATGGATTTATGCTAGATTACTTAGCCAGAGAAACAAAGGCAAATGCATATTCAGAGGTATACTGATAGCGATGTTTCCATGGAAACAAGGATGCTATCATAATATTTATTTCCA,0.0351
GCATGAGCCGCATTGCCCAGCAAAAGCCTCTAAGTGGTGATTTGCTGTTTGGCCTGAGAGTAATTTGGAGGCTGTGGCTGAGTCAGCTTCTCTTGTTGACTGAGCTGATGTCACTTTTGAGCATCATTGTTCCATAATTCCTTATGAAACTCTTCTGAAGCACTGAGAACCATCGACGGATCATATCAGCATG,0.016

# Series 2
# Target: RNA binding protein fox-1 homolog 2, RRM domain, GST-SBP tag (RBFOX2, Homo sapiens, UniProt O43251-10, residues 100-194)
# Technique: RNA Bind-n-Seq
# Form: RNA
# Matrix: in vitro
# Concentration: 365 nM
# Setting: natural RNA segment, single round, ends assumed
# Reference: no-protein control
# Reading: higher = stronger binding
# Constant ends, left off below: GGGAGUUCUACAGUCCGACGAUC … UGGAAUUCUCGGGUGCCAA
# Target sequence (chain): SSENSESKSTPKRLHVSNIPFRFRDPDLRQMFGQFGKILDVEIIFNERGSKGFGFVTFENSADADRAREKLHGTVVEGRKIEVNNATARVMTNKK
Oligonucleotide,RBNS enrichment (R)
UUUUUUGCUCCCAACUUCCUGACACUAGAUGAGUCAGCAGACAUGAGUCCUGACUUCCAAGAGAUUUUAGAAUCUAAGCUGGAUAGUACAGACAGGUAUAAAAGAUGGAU,0.319
UGCCCGUUCCAUGCCAAGCAUUAGGCUGGGUGCUUUACAUAAGUUUAAUCCUCACAAUAGCCCUGUAAGGUUGCACCUAUUAUCUCCACUUUGACCACGAAGAAACGGAG,1.21
UUUGUUCAACACAAACUACCAUCACACCUCUGACUUGAUAUUAUCAUGAGAAUGUGGAUGUACAAGUGUAAAAACAGGAAUGUACUAUCUCUCCUGAGCAGAUUGCCUGA,0.4
UGAUCUCUUAGAAGCCAUGGGACCUCCUCCCUCAUUCAUCUUGCAAGCAAAUCCCAUUUCUUGAAAAGCCUUGGAGAACUCGGUUUGGUAGACUUGGACAUCUCUCUGGC,0.798
AAACCUAUAGAAGUUAGCAUUACUGCUAAAAUCCCAGAUGUUGUAGGACUGUACUUUUGUAGAGUUUAGACAGAGCAUCAAUCCCUUCUCCCCGCGAGUGCAGUCGGAUG,0.506
UCUAGUGGGAGUUCUAUAUAAAUGUUUCUUUGGUAUUCUUCAGCCUGUGAUUUAAAGUUUUACAAAAAGCAGAGCUUUUUCCUAAGUUACUUUUCAGUUAGGUAACUGUG,0.562
UAGAUGGAAACAGAGACAUUGAGCCCUCUCUCUUGAUCGUAAACCACUCCAGAACGGCCACGGGUUUCCCAGAGUUCUAUGGUCUUCCCAAGAGAAUUUUUAAUUGUAAA,0.387
CCAUCUUAAAAAGAUUUAGAGUGGAUUAACCAGGUCAUUACAUCUUAAUUUAAUAACAAGCAUUACUGUAGAGUGAUUGUGUGUAGGUAUCUAAUAGGUGUGUUUUUUUU,0.647

# Series 3
# Target: Fragile X messenger ribonucleoprotein 1, C-terminal low-complexity region (Fmr1, Mus musculus, UniProt P35922)
# Technique: RNA Bind-n-Seq
# Form: RNA
# Matrix: in vitro
# Concentration: 200 nM
# Setting: whole 134-nt RNA, ends assumed
# Together with: 150 mM KCl
# Reference: input library
# Reading: higher = stronger binding
# Constant ends, left off below: GGGAGUUCUACAGUCCGACGAUC … UGGAAUUCUCGGGUGUCAAGG
Oligonucleotide,log2 enrichment
UGGGAGACGAUCGCGAUGAACACGGUGCUGUCGCGGGCGAACUCACUGUUCGCCUUCUCGCUGAGCGUGAUGGCGGCGCUCACCUUCGGC,-1.57
UCCUGUGCUACACAUCGUAUGUACCGAAUCGGUUUUUUGGUUUUUUGGGGUUUUUUGGGAAAGUAUUAUGUUACGCCGUUCGGAUCUGCA,-0.161
UCCUGUGCUACACAUCGUAUGUACCGAAUCGGGGCCCCCGGGGCCCCCGGGCCCCCGGGAAAGUAUUAUGUUACGCCGUUCGGAUCUGCA,-1.29
AGUCCUGUGCUACACAUCGUAUGUACCGAAUCGGGUUUGGGAAAAAGGGUUUUUGGGAAAGUAUUAUGUUACGCCGUUCGGAUCUGCACU,0.364
UGGAAUAAGCCUGGUGCUUUCUGGCUAUGUUUGUCAUAGGCUGACCUGGAUAUCACCGAAAUAAACAAACUAACAGCAGAAGCUAUUCAG,-0.429
UAACUGUAGAGGAGGAUCUGAUGGAUAUGGCAGUGGACGUGGAUUUGGGGAUGGCUAUAAUGGGUAUGGAGGAGGACCUGGAGGUGGCAA,0.399
CUGUGCUACACAUCGUAUGUACCGAAUCGGGGUUUUUUUGGGUUUUUUUGGGUUUUUUUGGGAAAGUAUUAUGUUACGCCGUUCGGAUCU,-0.233
UGGCCCUGGUGGCAUGCGGGGAGGAACAGGUGGCCUCAUGGAUCGUGGUGGUCCCGGUGGAAUGUUCAGAGGUGGCCGUGGUGGAGACAG,-0.0437
UCCUGUGCUACACAUCGUAUGUACCGAAUCAAAUUUUUAAACCCCCAAAUUUUUUUAAAAAAGUAUUAUGUUACGCCGUUCGGAUCUGCA,0.606

# Series 4
# Target: Histone acetyltransferase KAT6A, winged helix 2, GST fusion (KAT6A, Homo sapiens, UniProt Q92794, residues 85-181)
# Technique: protein binding microarray
# Form: double-stranded DNA, one strand shown
# Matrix: in vitro
# Concentration: not given
# Setting: 8-mer, flanks averaged, mean of 2 arrays, mostly near background
# Reference: not given
# Reading: higher = stronger binding
# Target sequence (chain): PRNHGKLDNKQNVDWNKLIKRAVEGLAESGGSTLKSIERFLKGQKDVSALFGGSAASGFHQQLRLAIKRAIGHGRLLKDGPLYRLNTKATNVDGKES
Oligonucleotide,E-score
CTAGACAG,-0.0131
CAACCCTA,-0.075
ATGGACAC,0.122
AACTATAC,-0.00525
CTGGCCCA,0.15
ACAATGAC,-0.188
CGCGGTCA,0.0865
CGGCGTTC,0.0852
GCGCGAAA,0.227
AATATCAG,0.00769
ATGGAGAG,-0.0922
ATATCCTA,-0.103
CACGGAAC,0.0436
AACATTCA,-0.303
GCGCGATA,0.175
ACGCGCGG,0.247
GAGACGGA,0.0362
CTGCAGTA,-0.125
GCAGGCGC,0.292
AATAAAGC,0.0189
GACGCTAA,-0.0836
AAGGTTTA,-0.119
CGCGCAGA,0.16
CAATGTAC,-0.201

# Series 5
# Target: Prothrombin, mature alpha-thrombin (F2, Homo sapiens, UniProt P00734)
# Technique: aptamer microarray, sandwich
# Form: DNA with 2'F-ANA
# Matrix: in vitro
# Concentration: 200 nM
# Setting: whole 15-mer aptamer, many near background
# Together with: Cy3 exosite-II aptamer, 400 nM
# Reading: higher = stronger binding
# Oligonucleotide: GGTTGGTGTGGTTGG
Modification,mean fluorescence intensity
2'F-ANA at 2 7 8 9 11 14,159 a.u.
2'F-ANA at 8 10 11 12 13 15,175 a.u.
2'F-ANA at 3 4 6 7 8 9 11 13,453 a.u.
2'F-ANA at 1 4 6 7 9 11 13 14,49.4 a.u.
2'F-ANA at 3 5 7 8 9 10 11,57.7 a.u.
2'F-ANA at 1 2 6 13 15,112 a.u.
2'F-ANA at 2 4 5 7 9 11 14 15,50.3 a.u.
2'F-ANA at 1 4 5 6 7 10 11 12 13 14 15,49.3 a.u.
2'F-ANA at 2 7 9 12 14 15,181 a.u.
2'F-ANA at 1 5 6 12 13 14,46.2 a.u.
2'F-ANA at 1 3 4 6 8 11 13 14 15,66.7 a.u.
2'F-ANA at 1 2 3 8 10 13 14,61.2 a.u.
2'F-ANA at 1 2 5 6 7 8 9 10 15,51.4 a.u.
2'F-ANA at 5 6 7 8 9 11 15,62.1 a.u.
2'F-ANA at 4 5 7 15,152 a.u.
2'F-ANA at 1 3 6 7 11 13 14 15,78.4 a.u.
2'F-ANA at 1 2 4 5 6 8 9 10 11 13,88.1 a.u.
2'F-ANA at 1 2 3 6 7 9 10 11 14,53.2 a.u.
2'F-ANA at 1 2 4 11,98.6 a.u.
2'F-ANA at 1 3 4 5 8 9 10 11 12,47.3 a.u.
2'F-ANA at 1 4 5 7 9 10 12 14 15,50.3 a.u.
2'F-ANA at 1 2 3 5 6 13 15,51.5 a.u.
2'F-ANA at 1 2 3 4 5 6 7 8 11 12,114 a.u.
2'F-ANA at 2 4 5 6 12 13 15,90.9 a.u.

# For quick reference, copied from above (series 4):
Oligonucleotide,E-score
CGGCGTTC,0.0852
GCGCGAAA,0.227
AATATCAG,0.00769
ATGGAGAG,-0.0922
ATATCCTA,-0.103
CACGGAAC,0.0436
AACATTCA,-0.303
GCGCGATA,0.175
ACGCGCGG,0.247
GAGACGGA,0.0362
CTGCAGTA,-0.125
